Assay results collected from several papers.
Every numbered part comes from another study and shows a few of its results, in no order.

Block 1
Target: TAR DNA-binding protein 43, full length, His tag (TARDBP, Homo sapiens, UniProt Q13148, residues 1-414)
Method: RNA Bind-n-Seq
Form: RNA
Sample: in vitro
Tested at: 20 nM
Notes: 6-mer, flanks averaged, single round
With: 150 mM LiCl
Relative to: input library
Direction: higher = stronger binding
`UUGUAU`: “6-mer enrichment (R)” 1.25.
For `CUGUUU`, “6-mer enrichment (R)” read 1.14.
For `AAUCCU`, “6-mer enrichment (R)” read 0.835.
`AGCUUC` — result for “6-mer enrichment (R)”: 0.833.
`AAAGCC` — result for “6-mer enrichment (R)”: 0.833.
Under “6-mer enrichment (R)”, `CACGGG` is recorded as 0.938.
For `GUUACG`, “6-mer enrichment (R)” read 0.991.
`CUGAGC` — result for “6-mer enrichment (R)”: 0.88.
For `AGACCU`, “6-mer enrichment (R)” read 0.827.
`UGACGA`: “6-mer enrichment (R)” 0.849.
For `ACCUAG`, “6-mer enrichment (R)” read 0.815.
`GAUUUG`: “6-mer enrichment (R)” 1.04.
For `CAGCAG`, “6-mer enrichment (R)” read 0.905.
Under “6-mer enrichment (R)”, `GUUUAC` is recorded as 0.983.
`CUUAAG` — result for “6-mer enrichment (R)”: 0.868.
`AGAUAA` — result for “6-mer enrichment (R)”: 0.837.
`AUGUAC`: “6-mer enrichment (R)” 0.909.
Under “6-mer enrichment (R)”, `CCAGGU` is recorded as 0.962.
`UGGCUG` — result for “6-mer enrichment (R)”: 1.12.
Under “6-mer enrichment (R)”, `ACCCCG` is recorded as 1.01.
`AGAUCU`: “6-mer enrichment (R)” 0.824.
`GCAAUG` — result for “6-mer enrichment (R)”: 0.948.
`AUAAAG`: “6-mer enrichment (R)” 0.894.
For `GGCUUC`, “6-mer enrichment (R)” read 0.87.

Block 2
Target: Sal-like protein 4, full length isoform A (SALL4, Homo sapiens, UniProt Q9UJQ4, residues 1-1053)
Sequence of UniProt Q9UJQ4 (whole entry, looked up): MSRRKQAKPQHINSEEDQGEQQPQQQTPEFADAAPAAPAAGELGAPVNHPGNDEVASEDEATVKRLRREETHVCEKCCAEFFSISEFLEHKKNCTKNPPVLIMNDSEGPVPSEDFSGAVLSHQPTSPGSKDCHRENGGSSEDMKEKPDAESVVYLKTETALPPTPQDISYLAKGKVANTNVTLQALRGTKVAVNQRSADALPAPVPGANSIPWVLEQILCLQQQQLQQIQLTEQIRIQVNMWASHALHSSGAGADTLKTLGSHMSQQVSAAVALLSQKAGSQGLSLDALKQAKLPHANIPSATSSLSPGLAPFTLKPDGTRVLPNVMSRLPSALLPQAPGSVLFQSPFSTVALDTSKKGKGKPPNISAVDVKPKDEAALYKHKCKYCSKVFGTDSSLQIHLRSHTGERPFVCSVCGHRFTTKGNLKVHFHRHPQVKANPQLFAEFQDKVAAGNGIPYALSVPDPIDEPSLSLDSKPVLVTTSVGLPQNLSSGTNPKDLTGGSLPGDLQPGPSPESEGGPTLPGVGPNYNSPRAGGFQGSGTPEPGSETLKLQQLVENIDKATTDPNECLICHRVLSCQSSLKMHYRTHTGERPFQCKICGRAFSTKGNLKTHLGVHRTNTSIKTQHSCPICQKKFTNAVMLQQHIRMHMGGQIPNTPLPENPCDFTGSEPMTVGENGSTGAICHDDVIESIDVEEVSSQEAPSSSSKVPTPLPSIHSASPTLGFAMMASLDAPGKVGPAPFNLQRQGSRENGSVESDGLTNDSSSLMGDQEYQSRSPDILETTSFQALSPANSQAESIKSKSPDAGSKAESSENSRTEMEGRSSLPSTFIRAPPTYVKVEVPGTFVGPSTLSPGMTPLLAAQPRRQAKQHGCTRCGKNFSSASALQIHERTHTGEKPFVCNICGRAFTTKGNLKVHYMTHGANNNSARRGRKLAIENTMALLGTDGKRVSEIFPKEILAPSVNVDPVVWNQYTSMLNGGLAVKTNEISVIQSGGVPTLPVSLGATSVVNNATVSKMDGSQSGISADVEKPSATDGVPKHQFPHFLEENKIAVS
Method: universal PBM
Form: double-stranded DNA, one strand shown
Sample: in vitro
Tested at: 600 nM
Notes: 8-mer, flanks averaged, mean of replicates
Direction: higher = stronger binding
For `CAAAGTAA`, the E-score was 0.217.
The E-score of `ACTGGAGA` is reported as -0.135.
The E-score of `GTTCCGTA` is reported as 0.043.
`AACAATCT` has an E-score of 0.198.
`GGAAATAC` gave an E-score of 0.178.
The E-score of `GTCCATCA` is reported as 0.0218.
`AATTTAGT` gave an E-score of 0.199.
For `CTGGAACA`, the E-score was 0.0734.
For `GTTAGAAC`, the E-score was 0.036.
The E-score of `GAGGAAGA` is reported as 0.0305.
`GGGTCGTA` has an E-score of -0.164.
`CATATGCG` has an E-score of 0.127.
The E-score of `AACATCTA` is reported as 0.156.
`TCAAGTCA` gave an E-score of 0.101.
For `TGATCGAA`, the E-score was 0.0145.
For `ACAACTCA`, the E-score was 0.175.
`CGCCTAAG` gave an E-score of -0.242.

Block 3
Target: RNA binding protein fox-1 homolog 2, RRM domain, GST-SBP tag (RBFOX2, Homo sapiens, UniProt O43251-10, residues 100-194)
Method: RNA Bind-n-Seq
Form: RNA
Sample: in vitro
Tested at: 365 nM
Notes: natural RNA segment, single round, ends assumed
Relative to: no-protein control
Direction: higher = stronger binding
Constant ends, left off below: GGGAGUUCUACAGUCCGACGAUC … UGGAAUUCUCGGGUGCCAA
Construct (chain): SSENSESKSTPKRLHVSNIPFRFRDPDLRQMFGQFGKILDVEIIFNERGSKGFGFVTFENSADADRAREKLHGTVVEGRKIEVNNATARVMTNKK
`CUGGGUAAUUUGAUGGAAUAUUUUACGUUUGAUUAAAUCAAAACAGUAAACACUCUCUUAGAUACUGUGUUGGAAGUAGUUAUUCUCCCAUAGUUUAAUGAAACUUGAAA`: “RBNS enrichment (R)” 0.589.
`AAUUAAAAGAGAAACUGUAACAGUCUAUAUCACUAUACCCUUUUAGUUUUAUAAUUAGCAUAUAUUUUGUUGUGAUUAUUUUUUUUGUUGGUGUGAAUAAAUCUUGUAAC` — result for “RBNS enrichment (R)”: 1.
Under “RBNS enrichment (R)”, `UUGUUUUAUAGUUAUUUACGAUUUCGUUUGUUUGGAUUCAAGCUUAGUUUGUUAAUAUGUAUAAUUUAGCAUCUAUUACACUCAUGUAAAUAUGGAGUAAGUAUUGUAAA` is recorded as 0.758.
`GUCUGCAGCCCGGGCUGCCUGGGCCACAGCCUGCCAGUGUGGGCAGUGUGACGAAAGGCGGCCUGUACUGCCCUAAGAAAUCUGAUGUAAAGUUUUUGUAUAUUUCAUAU` — result for “RBNS enrichment (R)”: 0.324.
`CAGGCUUGUGUCCCCACUGCUGCAUCGUGGCGGGGUGUCACAGACCCUCUGCAGCCCCUGGCUGCCCUGGACUGUGCAGAGAUGCCUGACUCCAGGGAAACCUGAAAGCA` — result for “RBNS enrichment (R)”: 0.948.
For `AGCCUCGUAUUUCCCCAUUGAGAGUUUUGUUCCAAGGAAUAUGAAGUGAGACAUAUGGGUGAGUCAUAAUAAUCAAAAUAAUUUAUGAAGAGCUGGGUCUGCAAUAGCUA`, “RBNS enrichment (R)” read 0.47.
Under “RBNS enrichment (R)”, `AAUUGUGUAAUAAACUUGAUGACGAUGUCAAUCUUUUAUACUGCAUUGUAUUUUUUUCCUUUUGUAACAAAAUAUUUUUAAAUAAUAAAUGGGGUGUGAGCUGUUUACGG` is recorded as 0.431.
`GUGUCCUAGAAGGGACCCUCCUGUGGUCUUUGUCUUGAUUUUUCUUAAUAAACGGUGCUAUCCCCGCAGGGGCCUCCUGAGUCUUUGAUGAGGGCUUCACUCAGUGGAGC` — result for “RBNS enrichment (R)”: 0.382.
Under “RBNS enrichment (R)”, `AUCUCUCCAGCAACAAUAACCUAAGAUGUCUAUAGACAUUAGACCAUGUCUCCAUAAGACAGGCCCACUAGAAACACCGUUCAGAACCAUAGAGAAGCCAUGGUUUCUGC` is recorded as 0.53.
For `ACAGCUAGAUGUCUUUACAAACCUUAAACCAAAGGAGUAAAAAAAACAAUGGUAAGCACUGAAGUAUAAUAAGUAACCUUUGGUACAGCAGGUUUGCUGCAGUGUUUUUU`, “RBNS enrichment (R)” read 0.431.
`CAGUGCAUGAUGUUUAAGGCCACAUAUAGUCCAGCUGAUGCCAAUAAUAAAAGACAAGAAACCAAGUGGGCUGGUAUUUUCUCUAUGCAAAAUGUCUGUGGAGAUGGAUG` — result for “RBNS enrichment (R)”: 1.13.
`AAAAAUACUGUAUUUAAAAUGUAAAAUAAACUUUUAAAAAGCAAGCACUAAUAUAUAUUUCUUUCAGCCUUUGAUUACAGUUUUGUCCUUGCACAUGUUAAGAUAAAUUA`: “RBNS enrichment (R)” 1.28.

Block 4
Target: Fragile X messenger ribonucleoprotein 1, C-terminal low-complexity region (Fmr1, Mus musculus, UniProt P35922)
Method: RNA Bind-n-Seq
Form: RNA
Sample: in vitro
Tested at: 200 nM
Notes: whole 134-nt RNA, ends assumed
With: 150 mM KCl
Relative to: input library
Direction: higher = stronger binding
Constant ends, left off below: GGGAGUUCUACAGUCCGACGAUC … UGGAAUUCUCGGGUGUCAAGG
The log2 enrichment of `ACCAUGCAGGUGGGCAUCUUUGGGAAGUGGGGCAAGGGGGGGAUAGCGAGGGGGGUAACACUUUGGGAACAGGUGGUCCCAGGUCGUUUC` is reported as 0.531.
`GCAGGAAGUAAAAACAAAUGGAAAUGCUUCGGAUAGUGGCAGGAGUGGGGGUUGCUAAGGAAAGGGUGGGAUGGGAGUGGGUAAAGAGUU` gave a log2 enrichment of 0.518.
With `UACAGACAACACGCACCCACACAGACACAGAGGGAAGGGGUUGGGAUGGGGACAGGGUGCACAGCAGGGCGGGGUAGGACCCCAGCCCCU` the log2 enrichment was 1.25.
For `AAGUCCUGUGCUACACAUCGUAUGUACCGAAUCGGGGUUUUGGUUUUGGUUUUGGGGAAAGUAUUAUGUUACGCCGUUCGGAUCUGCACU`, the log2 enrichment was -0.416.
The log2 enrichment of `AGUCCUGUGCUACACAUCGUAUGUACCGAAUCGGGGAAAAGGGAAAAGGAAAAGGGGAAAGUAUUAUGUUACGCCGUUCGGAUCUGCACU` is reported as 0.474.
With `CUCAAGUCCUGUGCUACACAUCGUAUGUACCGAAUCGGGUUGGGGUUGGGUUGGAAAGUAUUAUGUUACGCCGUUCGGAUCUGCACUUCC` the log2 enrichment was 0.372.
The log2 enrichment of `AAGUCCUGUGCUACACAUCGUAUGUACCGAAUCAAAUUUUUAAACCCAAACCCAAAAAAGUAUUAUGUUACGCCGUUCGGAUCUGCACUU` is reported as -0.266.
`CCUCAAGUCCUGUGCUACACAUCGUAUGUACCGAAUCGGGGCGGCGGGGCGGAAAGUAUUAUGUUACGCCGUUCGGAUCUGCACUUCCAG` has a log2 enrichment of 0.342.
With `ACCAUGCAGGUGGGCAUCUUUGGGAAGUGGGGCAAGGGGGGGAUAGGGAGGGGGGUAACACUUUGGGAACAGGUGGUCCCAGGUCGUUUG` the log2 enrichment was 0.78.
With `GCAGGAAGUAAAAAGAAAUGGAAAUGCUUCGGAUAGUGGCAGGGGUGGGGGUUGCUAAGGAAAGGGUGGGAUGGGAGUGGGUAAAGAGUU` the log2 enrichment was 0.0776.
With `GCAGGAAGUAAAAACAAAUGGAAAUGCUUCGGAUAGUGGCAGGGGUGGGGGUUGCUAAGGAAAGGGUGGGAUAAAAGUGGGUAAAGAGUU` the log2 enrichment was 0.302.
`UAACUUUAGAGGAGGAUCUGAUGGAUAUGGGAGUGGACGUGGAUUUGGGGAUGGCUAUAAUGGGUAUGGAGGAGGACCUGGAGGUGGCAA` gave a log2 enrichment of 0.219.
`UCCUGUGCUACACAUCGUAUGUACCGAAUCGGGGUUUGGGGAAAGGGGUUUUUUUGGGGAAAGUAUUAUGUUACGCCGUUCGGAUCUGCA` gave a log2 enrichment of 0.67.
`CAAGUCCUGUGCUACACAUCGUAUGUACCGAAUCGGUUUGGUUUUUUUGGUUUGGAAAGUAUUAUGUUACGCCGUUCGGAUCUGCACUUC` has a log2 enrichment of -0.596.

Block 5
Target: Interferon regulatory factor 5, full length, phosphomimetic (IRF5, Homo sapiens, UniProt Q13568-2, residues 1-514, K96S/S451D/S453D/S456D/S462D)
Method: protein-binding microarray
Form: double-stranded DNA, one strand shown
Sample: in vitro
Tested at: 250 nM
Notes: 60-bp whole probe
With: salmon DNA 0.4 mg/ml
Relative to: random background probes
Direction: higher = stronger binding
Constant ends, left off below: GCCTAGCAC … GTCTTGATTCGCTTGACGCTGCTG
For `TCACATCTCAAGTAGCCTACTGTGCTA`, the log fluorescence was 0.204 z-score.
With `ACAAATACAAGTTTCTCCTTGTGCTAG` the log fluorescence was 1.62 z-score.
`GACGATATCGGGTTTGGAGACGTGCTA` has a log fluorescence of 1.37 z-score.
`GACGAACTGAGTATCGCGACGTGCTAG` has a log fluorescence of -0.104 z-score.
The log fluorescence of `GACGGAGTGGGACTGGGGACGTGCTAG` is reported as -0.529 z-score.
`GATGATATCAGTATCGAGACGTGCTAG` gave a log fluorescence of 3.73 z-score.
With `GACGATTTCACTTCCGAGACGTGCTAG` the log fluorescence was 1.6 z-score.
For `AACGATTTCGGGACTGGAGACGTGCTA`, the log fluorescence was 1.87 z-score.
`GACGGTTTCAGTTCCGGGACGTGCTAG` gave a log fluorescence of 3.08 z-score.
`TTAGGTTCCCTTTTCCATTAGTGCTAG` gave a log fluorescence of 0.578 z-score.
`TACGATCTCAGTTTCGAGACGTGCTAG` gave a log fluorescence of 4.65 z-score.
`TCATATATGTGATTAAAACTGTGCTAG` gave a log fluorescence of 0.767 z-score.
With `GAGGGTATCGGACTGGGGACGTGCTAG` the log fluorescence was 0.262 z-score.
With `TCATTTGTCACTCTCAGACTGTGCTAG` the log fluorescence was 0.397 z-score.
`GACGGTTTCCTTATCCTGAGGTGCTAG` has a log fluorescence of 0.947 z-score.
`TTAGGTTTCGGGAGTGGGTTAGTGCTA` has a log fluorescence of 5.87 z-score.
`GCTTCTCCTTGGAATAGATCGTGCTAG` has a log fluorescence of -0.000721 z-score.
`CTCACCGCTGGAGTTCTGCGGTGCTAG` has a log fluorescence of -0.653 z-score.
For `TTAGATATCAGACTGGATGAGTGCTAG`, the log fluorescence was 0.322 z-score.
`GACCATTTCAGACTGGAGACGTGCTAG` has a log fluorescence of -0.0861 z-score.
`GACGATATCAGTTTCAAGACGTGCTAG` has a log fluorescence of 2.47 z-score.
`GCATCTATCTTAAATAGGGACGTGCTA` has a log fluorescence of 0.438 z-score.
`TTAGAAATGAGACTGGATTAGTGCTAG` gave a log fluorescence of -0.0509 z-score.
`GACGGACTGGGTCTGGGGACGTGCTAG` has a log fluorescence of -0.766 z-score.

Some of these lines once more (block 5):
`GACGGTTTCAGTTCCGGGACGTGCTAG` gave a log fluorescence of 3.08 z-score.
`TTAGGTTCCCTTTTCCATTAGTGCTAG` gave a log fluorescence of 0.578 z-score.
`TACGATCTCAGTTTCGAGACGTGCTAG` gave a log fluorescence of 4.65 z-score.
`TCATATATGTGATTAAAACTGTGCTAG` gave a log fluorescence of 0.767 z-score.
With `GAGGGTATCGGACTGGGGACGTGCTAG` the log fluorescence was 0.262 z-score.
With `TCATTTGTCACTCTCAGACTGTGCTAG` the log fluorescence was 0.397 z-score.
`GACGGTTTCCTTATCCTGAGGTGCTAG` has a log fluorescence of 0.947 z-score.
`TTAGGTTTCGGGAGTGGGTTAGTGCTA` has a log fluorescence of 5.87 z-score.
